Measurements pooled from the literature.
Protocols differ between the studies behind these lines. ± gives the spread as reported. ≈ marks a conversion by molar mass, not a printed value.
Organism: Botrytis cinerea

Cc1cc(C(=O)NCC(F)(F)c2ccc(Cl)cc2Cl)c(Oc2cccc(C3CC3)c2)nn1 — EC50 (fungal growth, inhibitor; B05.10 wild type; 168 h): 4.8 ± 2.1 nM
C[C@@H](O)[C@H](NC(=O)[C@H](CS)NC(=O)[C@H](Cc1ccccc1)NC(=O)[C@H](CS)NC(=O)[C@H](CCCNC(=N)N)NC(=O)[C@H](CCCNC(=N)N)NC(=O)[C@H](CCCNC(=N)N)NC(=O)[C@H](Cc1ccccc1)NC(=O)CNC(=O)[C@H](CCCNC(=N)N)NC(=O)[C@H](CS)NC(=O)[C@H](CCCNC(=N)N)NC(=O)CNC(=O)CN)C(=O)N[C@H](C(=O)N[C@@H](Cc1c[nH]cn1)C(=O)N[C@@H](CS)C(=O)O)[C@@H](C)O — lowest effective concentration (grey mould lesion size; detached Nicotiana benthamiana leaves; 48 h post-inoculation): 3 µM
Cc1ccc(C(F)(F)CNC(=O)c2cc(Cl)nnc2Oc2cccc(C(F)(F)F)c2)c(C)c1 — EC50 (fungal growth, inhibitor; B05.10 wild type; 168 h): 10.4 ± 0.7 nM
C#CCN1C(=O)C(CC#C)(C(=O)OCC)Oc2ccccc21 (stereo not drawn) — inhibition (microbial growth; 50 µg/mL): < 25%
C[C@@H](O)[C@H](NC(=O)[C@@H](N)CCCNC(=N)N)C(=O)N[C@@H](CS)C(=O)N[C@@H](CCC(=O)O)C(=O)N[C@@H](CO)C(=O)N[C@@H](CCC(N)=O)C(=O)N[C@@H](CO)C(=O)N[C@@H](Cc1c[nH]cn1)C(=O)N[C@@H](CCCCN)C(=O)N[C@@H](Cc1ccccc1)C(=O)N[C@@H](CCCCN)C(=O)NCC(=O)N1CCC[C@H]1C(=O)N[C@@H](CS)C(=O)O — lowest effective concentration (grey mould lesion size; detached Nicotiana benthamiana leaves; 48 h post-inoculation): > 24 µM
CC[C@H](C)[C@@H]1NC(=O)[C@H](CCCNC(=N)N)NC(=O)[C@H]([C@@H](C)O)NC(=O)[C@H](C(C)C)NC(=O)[C@H](Cc2ccccc2)NC(=O)[C@H](C(C)C)NC(=O)[C@H](CCCNC(=N)N)NC(=O)[C@H](CCCNC(=N)N)NC(=O)[C@H](CCCNC(=N)N)NC(=O)[C@H](Cc2ccccc2)NC(=O)CNC(=O)[C@H](CCCCN)NC(=O)[C@@H](NC(=O)[C@H](CCCNC(=N)N)NC(=O)CNC(=O)CN)CSSC[C@@H](C(N)=O)NC1=O — MIC (resazurin; synthetic fungal medium; with: NaCl 100 mM): 1.5 to 3 µM (≈ 3.01 to 6.03 µg/mL)
C=CCN1C(=O)C(CC=C)(C(=O)OCC)Oc2cc(F)ccc21 (stereo not drawn) — inhibition (microbial growth; 200 µg/mL): > 50%
CC[C@H](C)[C@@H]1NC(=O)[C@H](CCCNC(=N)N)NC(=O)[C@H]([C@@H](C)O)NC(=O)[C@H](Cc2c[nH]c3ccccc23)NC(=O)[C@H](Cc2ccccc2)NC(=O)[C@H](Cc2c[nH]c3ccccc23)NC(=O)[C@H](CCCNC(=N)N)NC(=O)[C@H](CCCNC(=N)N)NC(=O)[C@H](CCCNC(=N)N)NC(=O)[C@H](Cc2ccccc2)NC(=O)CNC(=O)[C@H](CCCCN)NC(=O)[C@@H](NC(=O)[C@H](CCCNC(=N)N)NC(=O)CNC(=O)CN)CSSC[C@@H](C(N)=O)NC1=O — MIC (resazurin; synthetic fungal medium; with: CaCl2 2 mM): 3 µM (≈ 6.55 µg/mL)
Cc1cc(C(=O)NCC(F)c2ccc(Cl)cc2Cl)c(Oc2cccc(C3CC3)c2)nn1 (stereo not drawn) — EC50 (fungal growth, inhibitor; B05.10 wild type; 168 h): 8.5 ± 0.4 nM

Some of these lines once more:
C[C@@H](O)[C@H](NC(=O)[C@H](CS)NC(=O)[C@H](Cc1ccccc1)NC(=O)[C@H](CS)NC(=O)[C@H](CCCNC(=N)N)NC(=O)[C@H](CCCNC(=N)N)NC(=O)[C@H](CCCNC(=N)N)NC(=O)[C@H](Cc1ccccc1)NC(=O)CNC(=O)[C@H](CCCNC(=N)N)NC(=O)[C@H](CS)NC(=O)[C@H](CCCNC(=N)N)NC(=O)CNC(=O)CN)C(=O)N[C@H](C(=O)N[C@@H](Cc1c[nH]cn1)C(=O)N[C@@H](CS)C(=O)O)[C@@H](C)O — lowest effective concentration (grey mould lesion size; detached Nicotiana benthamiana leaves; 48 h post-inoculation): 3 µM
